Earlier results, collected from citations in different studies.
Compare with care: the assays were run in different laboratories.
B1: CCL1; sequence looked up; chain KSMQVPFSRCCFSFAEQEIPLRAILCYRNTSSICSNEGLIFKLKRGKEACALDTVGWVQRHRKMLRHCPSKRK

Substance	target or system	assay	test system	setting	endpoint	result
B1 (CCL1)	CCR8 L258A mutant	IP accumulation, agonist	–	–	EC50	27 nM
mogamulizumab	–	–	human relapsed/refractory PTCL patients	dose not given	overall response rate	22 to 34%
GVPMGSVIKKRRKRMAKKKHRKLLRKTRHQRRNKK	Escherichia coli	–	peptide, DH5α	–	MIC	7 µM
retatrutide	–	–	human, obese adults	12 mg, 48 weeks, trial	body weight reduction	24.2%
bevacizumab	–	–	patients with recurrent glioblastoma	dose not given, CheckMate-143 trial	median progression-free survival	3.5 months
hydroxysafflor yellow A	–	kidney protection	rat renal ischaemia-reperfusion injury	intraperitoneal	effective dose	92 mg/kg
ifinatamab deruxtecan	–	–	patients with SCLC	dose not given	partial response	75%
brentuximab vedotin	–	–	relapsed/refractory ALCL patients, human	dose not given, PTCL	complete response rate	66%
pembrolizumab	–	–	HNSCC patients	dose not given, second-line therapy after first-line compound	progression-free survival	9.5 to 12.7 months
pegcetacoplan	–	–	human	180 mg/day for 28 days (2.6 mg/kg), arithmetic mean	Cmax	473 µg/mL
MKAKKWFKESLFKTFFKKGKKGIYPKSSFKEKTKDKTKKKKGGVWWFKK	Escherichia coli	–	peptide	–	MIC	6.3 µM
indirubin-3'-monoxime	–	angiogenesis	zebrafish embryos	–	IC50	310 nM
insulin (human)	–	outcome: inhibited	neuronal media	concentration not given	ADDL aggregation	inhibited

For quick reference, copied from above:
Substance	target or system	assay	test system	setting	endpoint	result
hydroxysafflor yellow A	–	kidney protection	rat renal ischaemia-reperfusion injury	intraperitoneal	effective dose	92 mg/kg
